{"data": "Assay results of several laboratories", "note": "Parts stem from different laboratories: compare values within a part only.", "sequence of UniProt Q5XXA6 (whole entry, unmodified, looked up)": "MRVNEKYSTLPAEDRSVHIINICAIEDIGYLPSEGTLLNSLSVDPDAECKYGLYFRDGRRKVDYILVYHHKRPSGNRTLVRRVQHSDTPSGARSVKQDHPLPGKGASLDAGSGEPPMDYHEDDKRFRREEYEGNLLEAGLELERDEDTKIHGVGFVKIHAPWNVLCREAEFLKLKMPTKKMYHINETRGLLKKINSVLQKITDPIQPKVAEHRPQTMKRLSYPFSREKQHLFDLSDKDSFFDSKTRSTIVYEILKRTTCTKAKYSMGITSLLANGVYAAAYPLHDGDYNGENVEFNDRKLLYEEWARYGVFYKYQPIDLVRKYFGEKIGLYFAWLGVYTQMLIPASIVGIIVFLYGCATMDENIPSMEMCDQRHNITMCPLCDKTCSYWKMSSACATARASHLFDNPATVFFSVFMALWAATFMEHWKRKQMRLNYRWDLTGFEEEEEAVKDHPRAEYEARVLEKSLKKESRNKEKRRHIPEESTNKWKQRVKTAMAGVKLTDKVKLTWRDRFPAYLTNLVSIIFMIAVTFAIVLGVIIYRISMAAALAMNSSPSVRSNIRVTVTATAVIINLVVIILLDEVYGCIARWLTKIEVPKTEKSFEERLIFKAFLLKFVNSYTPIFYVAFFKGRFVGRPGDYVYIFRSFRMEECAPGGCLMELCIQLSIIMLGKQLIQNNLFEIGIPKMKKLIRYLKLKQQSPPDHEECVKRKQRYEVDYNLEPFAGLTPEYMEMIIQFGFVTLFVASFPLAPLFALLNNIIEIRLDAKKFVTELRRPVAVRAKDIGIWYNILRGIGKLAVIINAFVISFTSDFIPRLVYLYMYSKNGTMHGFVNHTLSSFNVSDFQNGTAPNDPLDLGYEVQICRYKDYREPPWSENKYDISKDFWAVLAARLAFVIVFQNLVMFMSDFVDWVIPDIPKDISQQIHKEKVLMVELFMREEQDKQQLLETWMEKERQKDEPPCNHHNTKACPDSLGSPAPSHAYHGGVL", "sequence of UniProt P15735 (whole entry, looked up)": "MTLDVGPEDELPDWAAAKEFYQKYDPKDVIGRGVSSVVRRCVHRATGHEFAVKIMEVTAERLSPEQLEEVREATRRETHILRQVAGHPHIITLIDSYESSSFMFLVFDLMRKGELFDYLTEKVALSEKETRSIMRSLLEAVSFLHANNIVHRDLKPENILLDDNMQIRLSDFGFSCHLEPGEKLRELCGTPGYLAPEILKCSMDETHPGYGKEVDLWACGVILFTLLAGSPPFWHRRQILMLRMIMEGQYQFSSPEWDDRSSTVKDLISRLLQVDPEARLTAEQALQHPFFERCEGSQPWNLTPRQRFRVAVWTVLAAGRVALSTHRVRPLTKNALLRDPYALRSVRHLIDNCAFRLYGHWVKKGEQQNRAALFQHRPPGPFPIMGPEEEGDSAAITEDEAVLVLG", "sequence of UniProt Q9Y3S1 (whole entry, looked up)": "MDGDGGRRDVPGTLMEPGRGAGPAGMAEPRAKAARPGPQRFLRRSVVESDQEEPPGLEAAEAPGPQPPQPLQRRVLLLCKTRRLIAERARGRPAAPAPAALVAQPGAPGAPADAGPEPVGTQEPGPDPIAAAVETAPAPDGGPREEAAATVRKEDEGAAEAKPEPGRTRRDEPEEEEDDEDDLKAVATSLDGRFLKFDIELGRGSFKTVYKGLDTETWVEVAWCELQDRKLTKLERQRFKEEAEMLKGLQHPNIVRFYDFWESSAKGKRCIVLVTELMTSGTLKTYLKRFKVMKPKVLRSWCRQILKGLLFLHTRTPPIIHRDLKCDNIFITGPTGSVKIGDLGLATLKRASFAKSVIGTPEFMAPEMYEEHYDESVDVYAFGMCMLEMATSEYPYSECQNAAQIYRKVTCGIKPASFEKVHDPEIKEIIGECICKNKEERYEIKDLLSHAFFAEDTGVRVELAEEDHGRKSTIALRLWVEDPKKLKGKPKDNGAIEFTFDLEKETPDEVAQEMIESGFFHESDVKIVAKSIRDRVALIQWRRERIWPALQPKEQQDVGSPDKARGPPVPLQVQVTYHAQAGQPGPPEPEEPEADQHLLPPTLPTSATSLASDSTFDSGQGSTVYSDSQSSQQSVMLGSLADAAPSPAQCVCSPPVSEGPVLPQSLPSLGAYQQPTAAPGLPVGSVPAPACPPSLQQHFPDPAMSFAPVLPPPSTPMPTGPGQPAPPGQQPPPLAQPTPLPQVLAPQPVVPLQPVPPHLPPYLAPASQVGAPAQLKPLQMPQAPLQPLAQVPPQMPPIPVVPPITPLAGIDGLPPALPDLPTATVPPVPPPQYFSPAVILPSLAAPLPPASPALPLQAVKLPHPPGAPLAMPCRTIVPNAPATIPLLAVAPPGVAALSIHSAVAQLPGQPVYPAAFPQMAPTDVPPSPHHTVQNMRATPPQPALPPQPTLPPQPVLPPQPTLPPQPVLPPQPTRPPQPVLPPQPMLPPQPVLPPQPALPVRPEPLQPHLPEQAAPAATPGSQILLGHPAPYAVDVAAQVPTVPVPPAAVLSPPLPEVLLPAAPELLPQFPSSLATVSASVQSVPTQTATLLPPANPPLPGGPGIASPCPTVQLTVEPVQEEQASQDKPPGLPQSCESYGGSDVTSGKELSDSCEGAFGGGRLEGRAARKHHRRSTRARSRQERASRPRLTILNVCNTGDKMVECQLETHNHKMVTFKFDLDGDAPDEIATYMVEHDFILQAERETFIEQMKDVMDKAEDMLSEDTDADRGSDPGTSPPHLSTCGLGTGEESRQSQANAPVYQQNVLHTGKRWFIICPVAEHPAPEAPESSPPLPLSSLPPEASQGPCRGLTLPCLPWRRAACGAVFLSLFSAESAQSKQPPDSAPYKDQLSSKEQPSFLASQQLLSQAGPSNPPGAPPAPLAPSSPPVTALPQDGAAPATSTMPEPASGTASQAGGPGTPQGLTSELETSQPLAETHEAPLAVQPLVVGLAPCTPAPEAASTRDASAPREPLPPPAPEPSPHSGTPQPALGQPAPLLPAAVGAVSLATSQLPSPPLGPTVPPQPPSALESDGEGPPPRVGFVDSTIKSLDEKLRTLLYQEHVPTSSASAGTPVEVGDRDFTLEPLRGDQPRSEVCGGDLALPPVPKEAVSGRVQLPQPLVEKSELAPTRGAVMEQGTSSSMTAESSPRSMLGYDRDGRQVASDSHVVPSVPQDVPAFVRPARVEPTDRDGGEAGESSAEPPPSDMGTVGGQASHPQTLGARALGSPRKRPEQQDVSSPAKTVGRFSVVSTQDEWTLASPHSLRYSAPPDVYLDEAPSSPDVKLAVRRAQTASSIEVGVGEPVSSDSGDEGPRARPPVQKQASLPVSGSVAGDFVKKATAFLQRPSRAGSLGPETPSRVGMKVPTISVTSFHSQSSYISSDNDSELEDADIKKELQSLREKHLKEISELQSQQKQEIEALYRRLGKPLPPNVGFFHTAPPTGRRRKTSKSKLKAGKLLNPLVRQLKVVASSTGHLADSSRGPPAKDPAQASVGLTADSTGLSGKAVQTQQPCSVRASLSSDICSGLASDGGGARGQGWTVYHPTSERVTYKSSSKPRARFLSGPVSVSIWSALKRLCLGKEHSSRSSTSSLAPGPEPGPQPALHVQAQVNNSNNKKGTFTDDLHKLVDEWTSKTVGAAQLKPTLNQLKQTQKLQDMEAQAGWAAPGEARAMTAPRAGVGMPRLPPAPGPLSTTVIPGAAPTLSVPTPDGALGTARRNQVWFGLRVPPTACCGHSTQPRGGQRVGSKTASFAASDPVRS", "sequence of UniProt P42336 (whole entry, looked up)": "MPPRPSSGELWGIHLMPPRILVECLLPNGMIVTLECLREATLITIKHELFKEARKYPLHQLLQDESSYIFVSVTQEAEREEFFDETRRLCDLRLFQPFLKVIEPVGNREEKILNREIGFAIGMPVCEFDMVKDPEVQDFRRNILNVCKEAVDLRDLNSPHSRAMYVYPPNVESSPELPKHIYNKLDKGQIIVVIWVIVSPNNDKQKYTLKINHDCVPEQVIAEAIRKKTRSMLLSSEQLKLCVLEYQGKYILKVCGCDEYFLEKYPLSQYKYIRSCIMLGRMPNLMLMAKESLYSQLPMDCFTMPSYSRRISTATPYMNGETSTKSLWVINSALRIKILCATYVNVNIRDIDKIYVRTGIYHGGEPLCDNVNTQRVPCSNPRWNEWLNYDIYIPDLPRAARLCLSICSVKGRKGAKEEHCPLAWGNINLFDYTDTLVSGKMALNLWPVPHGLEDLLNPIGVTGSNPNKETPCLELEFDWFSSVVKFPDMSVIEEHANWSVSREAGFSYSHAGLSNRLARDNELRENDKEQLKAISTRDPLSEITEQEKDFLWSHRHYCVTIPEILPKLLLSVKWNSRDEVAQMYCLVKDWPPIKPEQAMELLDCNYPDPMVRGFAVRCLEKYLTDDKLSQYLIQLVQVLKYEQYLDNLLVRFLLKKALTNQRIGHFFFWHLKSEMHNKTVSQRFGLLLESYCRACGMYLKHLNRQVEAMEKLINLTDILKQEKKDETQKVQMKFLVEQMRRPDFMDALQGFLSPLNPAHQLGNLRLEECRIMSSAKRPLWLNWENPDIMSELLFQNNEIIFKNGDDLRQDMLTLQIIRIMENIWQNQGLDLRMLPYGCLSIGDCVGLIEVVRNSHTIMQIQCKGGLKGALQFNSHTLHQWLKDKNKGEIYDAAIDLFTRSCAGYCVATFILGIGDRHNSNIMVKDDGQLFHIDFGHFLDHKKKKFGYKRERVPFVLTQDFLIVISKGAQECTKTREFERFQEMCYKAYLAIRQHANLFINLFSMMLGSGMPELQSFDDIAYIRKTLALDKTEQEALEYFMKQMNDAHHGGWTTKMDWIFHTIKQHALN", "sequence of UniProt P53778 (whole entry, looked up)": "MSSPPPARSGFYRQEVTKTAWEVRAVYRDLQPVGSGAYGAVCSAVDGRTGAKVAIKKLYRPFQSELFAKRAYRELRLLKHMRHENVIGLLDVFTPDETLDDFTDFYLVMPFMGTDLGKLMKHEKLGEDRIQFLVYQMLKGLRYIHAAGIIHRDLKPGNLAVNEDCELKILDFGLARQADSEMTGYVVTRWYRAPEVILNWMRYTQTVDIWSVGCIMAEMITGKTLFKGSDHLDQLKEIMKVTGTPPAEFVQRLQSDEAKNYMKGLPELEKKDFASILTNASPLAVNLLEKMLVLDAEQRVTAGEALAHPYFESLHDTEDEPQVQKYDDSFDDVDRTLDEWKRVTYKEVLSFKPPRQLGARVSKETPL"}
{"data": "Series 1", "target": "Diamine acetyltransferase 1 (Homo sapiens, UniProt P21673)", "mode": "inhibitor", "tested at": "10 µM", "relative to": "control", "Construct (P21673 1-171)": "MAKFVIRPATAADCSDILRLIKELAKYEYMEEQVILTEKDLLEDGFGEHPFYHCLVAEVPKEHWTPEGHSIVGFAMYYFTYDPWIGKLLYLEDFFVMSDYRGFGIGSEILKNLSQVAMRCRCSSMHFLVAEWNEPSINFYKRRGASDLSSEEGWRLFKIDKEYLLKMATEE"}
{"SMILES": "N[C@@H](Cc1ccccc1)C(=O)O", "remaining activity [%]": 100}
{"SMILES": "CCCCCCCC/C=C\\CCCCCCCCC(=O)O", "remaining activity [%]": 101}
{"SMILES": "C=C1CC[C@@]2(C)[C@H]([C@@H]1C)[C@H]1CC[C@@H]3[C@@]4(C)CC[C@H](O)C(C)(C)[C@@H]4CC[C@@]3(C)[C@]1(C)C[C@@H]2O", "remaining activity [%]": 91.2}
{"SMILES": "O=C(O)[C@H]1O[C@@H](Oc2cc(O)c3c(=O)cc(-c4ccc(O)cc4)oc3c2)[C@H](O)[C@@H](O)[C@@H]1O", "remaining activity [%]": 97.5}
{"SMILES": "O=c1c(O[C@@H]2O[C@H](CO)[C@@H](O)[C@H](O)[C@H]2O[C@@H]2O[C@H](CO)[C@@H](O)[C@H](O)[C@H]2O)c(-c2ccc(O)cc2)oc2cc(O)cc(O)c12", "remaining activity [%]": 73.9}
{"SMILES": "CSCCC(N)C(=O)O (racemic)", "remaining activity [%]": 110}
{"data": "Series 2", "SMILES": "C=CCc1ccc(O)c(-c2cc(CC=C)ccc2O)c1", "effect on": "chloride current", "method": "whole-cell voltage clamp"}
{"target": "Anoctamin-1 (ANO1, Homo sapiens, UniProt Q5XXA6, del476-501)", "test": "inhibitor", "setting": "wild type, added: 300 nM Ca2+", "IC50 [µM]": 30.6}
{"target": "Anoctamin-1 (ANO1, Homo sapiens, UniProt Q5XXA6, del476-501/F646A)", "setting": "membrane voltage -100 mV", "IC50 [µM]": 29.7}
{"target": "Anoctamin-1 (ANO1, Homo sapiens, UniProt Q5XXA6, del476-501/F623A)", "setting": "membrane voltage 40 mV", "IC50 [µM]": 22.5}
{"target": "Anoctamin-1 (ANO1, Homo sapiens, UniProt Q5XXA6, del476-501/F803A)", "setting": "membrane voltage 60 mV", "IC50 [µM]": 18.1}
{"target": "Anoctamin-1 (ANO1, Homo sapiens, UniProt Q5XXA6, del476-501/M544T)", "test": "inhibitor", "setting": "mutant M518T", "IC50 [µM]": 31.9}
{"target": "Anoctamin-1 (ANO1, Homo sapiens, UniProt Q5XXA6, del476-501/K629I)", "test": "inhibitor", "setting": "80 mV holding voltage", "IC50 [µM]": 232}
{"target": "Anoctamin-1 (ANO1, Homo sapiens, UniProt Q5XXA6, del476-501/M544A)", "setting": "membrane voltage 20 mV", "IC50 [µM]": 78.2}
{"target": "Anoctamin-1 (ANO1, Homo sapiens, UniProt Q5XXA6, del476-501/K629D)", "test": "inhibitor", "setting": "60 mV holding voltage", "IC50 [µM]": 213}
{"target": "Anoctamin-1 (ANO1, Homo sapiens, UniProt Q5XXA6, del476-501/R561A)", "setting": "membrane voltage 80 mV", "IC50 [µM]": 26.8}
{"data": "Series 3", "Structure (SMILES)": "CN([C@@H]1CCc2c(CC(=O)O)c3cc(S(C)(=O)=O)ccc3n2C1)S(=O)(=O)c1ccc(F)cc1", "effect on": "cell-free assay", "method": "competition with immobilised ligand", "tested at": "1 µM"}
{"target": "Proto-oncogene tyrosine-protein kinase receptor Ret (RET, Homo sapiens, UniProt P07949)", "remaining binding [%]": 100}
{"target": "Calcium/calmodulin-dependent protein kinase kinase 1 (CAMKK1, Homo sapiens, UniProt Q8N5S9)", "remaining binding [%]": 100}
{"target": "Tyrosine-protein kinase JAK1, JH1 (JAK1, Homo sapiens, UniProt P23458)", "remaining binding [%]": 100}
{"target": "Ephrin type-A receptor 3 (EPHA3, Homo sapiens, UniProt P29320)", "remaining binding [%]": 97}
{"target": "Proto-oncogene tyrosine-protein kinase ROS (ROS1, Homo sapiens, UniProt P08922)", "remaining binding [%]": 87}
{"target": "Phosphatidylinositol 4,5-bisphosphate 3-kinase catalytic subunit alpha isoform (PIK3CA, Homo sapiens, UniProt P42336)", "remaining binding [%]": 100}
{"target": "Phosphorylase b kinase gamma catalytic chain, liver/testis isoform (PHKG2, Homo sapiens, UniProt P15735)", "remaining binding [%]": 100}
{"target": "Mitogen-activated protein kinase 12 (MAPK12, Homo sapiens, UniProt P53778)", "remaining binding [%]": 100}
{"target": "Cyclin-dependent kinase 3 (CDK3, Homo sapiens, UniProt Q00526)", "remaining binding [%]": 100}
{"target": "Serine/threonine-protein kinase WNK2 (WNK2, Homo sapiens, UniProt Q9Y3S1)", "remaining binding [%]": 80}
{"target": "Non-receptor tyrosine-protein kinase TYK2, JH2 (TYK2, Homo sapiens, UniProt P29597)", "remaining binding [%]": 83}
{"target": "Mitogen-activated protein kinase kinase kinase 2 (MAP3K2, Homo sapiens, UniProt Q9Y2U5)", "remaining binding [%]": 89}
{"target": "Atypical kinase COQ8B, mitochondrial (COQ8B, Homo sapiens, UniProt Q96D53)", "remaining binding [%]": 100}
{"target": "3-phosphoinositide-dependent protein kinase 1 (PDPK1, Homo sapiens, UniProt O15530)", "remaining binding [%]": 100}
{"target": "NUAK family SNF1-like kinase 2 (NUAK2, Homo sapiens, UniProt Q9H093)", "remaining binding [%]": 87}
{"target": "Macrophage-stimulating protein receptor (MST1R, Homo sapiens, UniProt Q04912)", "remaining binding [%]": 94}
{"target": "Mitogen-activated protein kinase 9 (MAPK9, Homo sapiens, UniProt P45984)", "remaining binding [%]": 100}
{"data": "Series 4", "organism": "Sarcocystis neurona", "effect on": "parasite growth", "tested at": "10 µM", "time": "96 h", "setting": "second screen", "relative to": "untreated"}
{"Compound": "CCOC(=O)O[C@]1(C(=O)OCCl)CC[C@H]2[C@@H]3CCC4=CC(=O)C=C[C@]4(C)[C@H]3[C@@H](O)C[C@@]21C", "log2 fold change": 0.35}
{"Compound": "CC(=O)OCC(=O)[C@@]1(O)CC[C@H]2[C@@H]3C[C@H](C)C4=CC(=O)C=C[C@]4(C)[C@H]3[C@@H](O)C[C@@]21C", "log2 fold change": 0.27}
{"Compound": "CCCNC(=O)NS(=O)(=O)c1ccc(Cl)cc1", "log2 fold change": 0.32}
{"Compound": "O=C1c2cccc3c2[C@H](CCC3)CN1[C@@H]1CN2CCC1CC2", "log2 fold change": 0.29}
{"Compound": "C[C@@H](O)[C@H]1C(=O)N2C(C(=O)O)=C(S[C@@H]3CN[C@H](C(=O)N(C)C)C3)[C@H](C)[C@H]12", "log2 fold change": 0.66}
{"Compound": "COc1cc(NC(C)CCCN)c2ncccc2c1 (stereo not drawn)", "log2 fold change": -6.67}
{"Compound": "O=C(CCNNC(=O)c1ccncc1)NCc1ccccc1", "log2 fold change": 0.19}
